Measurements of several laboratories.
Protocols differ between the studies behind these lines.
Matrix: plasma

COc1cc2c(cc1O)CCN1C[C@@H](CC(C)C)[C@H](O)C[C@H]21 gave an AUC(0-t) of 0.0325 µg·h/mL (refers to: non-deuterated analyte; healthy human male; oral, 25 mg, geometric mean, [14C]-tetrabenazine dosed).
For CN(C(=O)C(C)(C)c1cc(C(F)(F)F)cc(C(F)(F)F)c1)c1cnc(N2C[C@H]3COCCN3C[C@H]2CO)cc1-c1ccc(F)cc1CO, the AUC(0-t) was 1.25 µg·h/mL (human; oral, 120 mg, geometric mean).
COc1cc2c(cc1OC)[C@H]1C[C@H](O)[C@H](CC(C)C)CN1CC2 has an AUC(0-t) of 0.0242 µg·h/mL (refers to: non-deuterated analyte; healthy human male; oral, 25 mg, geometric mean, [14C]-tetrabenazine dosed).
With CN1CCC[C@]1(C)/C=C/S(=O)(=O)NC(=O)Nc1c2c(cc3c1CCC3O)CCC2 (stereo partly drawn) the AUC(0-t) was 1930 µg·h/mL (human; oral, 100 mg twice daily of parent drug, day 14, metabolite of dosed drug).
CN(C(=O)C(C)(C)c1cc(C(F)(F)F)cc(C(F)(F)F)c1)c1cnc(N2C[C@H]3COC(O)CN3C[C@H]2CO)cc1-c1ccc(F)cc1CO (stereo partly drawn) gave an AUC(0-t) of 1.14 µg·h/mL (human; oral, 120 mg, geometric mean).
CN1CCC[C@]1(C)/C=C/S(=O)(=O)NC(=O)Nc1c2c(cc3c1CCC3)CC=C2 gave an AUC(0-t) of 707 µg·h/mL (human; oral, 50 mg twice daily of parent drug, day 14, metabolite of dosed drug).
CC1(C)CC[C@]2(NC(=O)C(C)(F)F)CC[C@]3(C)[C@H](C(=O)C=C4[C@@]5(C)C=C(C#N)C(=O)C(C)(C)[C@@H]5CC[C@]43C)[C@@H]2C1 has an AUC(0-t) of 0.695 µg·h/mL (human; oral, dose not given, geometric least-squares mean, added: efavirenz).
The AUC(0-t) of CN1CCC[C@]1(C)/C=C/S(=O)(=O)NC(=O)Nc1c2c(cc3c1CC(O)C3)CCC2 (stereo partly drawn) is reported as 280 µg·h/mL (human; oral, 100 mg twice daily of parent drug, day 14, metabolite of dosed drug).
With CC[C@H](C)[C@@H]1NC(=O)[C@H](Cc2ccc(O)cc2)NC(=O)CCCSC[C@@H](C(=O)N(CC(=O)N[C@@H](CC(C)C)C(=O)NCC(N)=O)Cc2ccc(F)cc2)NC(=O)[C@H](CC(N)=O)NC(=O)[C@H](CCC(N)=O)NC1=O the AUC(0-t) was 0.000132 µg·h/mL (healthy human; intranasal, 400 µg every 3 h, after second dose).

Some of these lines once more:
COc1cc2c(cc1O)CCN1C[C@@H](CC(C)C)[C@H](O)C[C@H]21 gave an AUC(0-t) of 0.0325 µg·h/mL (refers to: non-deuterated analyte; healthy human male; oral, 25 mg, geometric mean, [14C]-tetrabenazine dosed).
